Published values of several laboratories.
Every numbered part comes from another study and shows a few of its results, in no order.

Sample 1 — method: protein-binding microarray; molecule type: double-stranded DNA, one strand shown; matrix: in vitro; tested at: 2540 nM top; notes: 60-bp whole probe; with: salmon DNA 0.4 mg/ml; baseline: random background probes; reading: higher = stronger binding; shared flanks, not repeated: GCCTAGCAC … GTCTTGATTCGCTTGACGCTGCTG
Target: Interferon regulatory factor 3, full length, phosphomimetic (IRF3, Homo sapiens, UniProt Q14653, residues 1-427, S386D/S396D/S398D/S402D/T404D/S405D)
Target sequence (chain): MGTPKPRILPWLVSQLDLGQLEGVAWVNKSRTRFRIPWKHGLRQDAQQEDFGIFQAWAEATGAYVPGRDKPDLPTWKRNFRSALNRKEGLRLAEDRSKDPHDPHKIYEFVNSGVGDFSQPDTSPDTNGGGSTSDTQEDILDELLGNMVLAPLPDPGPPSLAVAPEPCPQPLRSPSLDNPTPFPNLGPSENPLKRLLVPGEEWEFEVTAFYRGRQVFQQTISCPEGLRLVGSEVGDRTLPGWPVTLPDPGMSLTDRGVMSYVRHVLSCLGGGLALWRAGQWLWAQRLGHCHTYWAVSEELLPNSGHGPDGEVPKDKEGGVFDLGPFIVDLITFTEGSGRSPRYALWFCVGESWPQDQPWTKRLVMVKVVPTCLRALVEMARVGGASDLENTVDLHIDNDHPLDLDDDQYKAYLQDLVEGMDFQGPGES
Strand	fitted relative affinity [z-score]
GACGAACTGCGTTTCGAGACGTGCTAG	0.862
ATGTATACACACTATAGTGAAGTGCTA	0.297
TTAGGTCTCGGTCCCGGTTAGTGCTAG	-0.0499
TTAGAATTGAGTTTCGATTAGTGCTAG	2.81
GACGGTATCGGGATCGGGACGTGCTAG	1.99
TTTTATATCTTATCCTATCAGTGCTAG	2.24

Sample 2 — method: protein binding microarray; molecule type: double-stranded DNA, one strand shown; matrix: in vitro; tested at: not given; baseline: not given; reading: higher = stronger binding
Target: Histone acetyltransferase KAT6A, winged helix 2, GST fusion (KAT6A, Homo sapiens, UniProt Q92794, residues 85-181)
Notes: 8-mer, flanks averaged, mean of 2 arrays, mostly near background
Residues (chain): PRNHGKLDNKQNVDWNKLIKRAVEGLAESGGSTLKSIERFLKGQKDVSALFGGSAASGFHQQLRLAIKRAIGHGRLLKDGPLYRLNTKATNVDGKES
Strand	E-score
CTAGGCAA	-0.0154
AGCCGTCG	0.198
CGCATCTC	0.155
ACGCACCG	-0.0165
ACACCAAG	-0.156
ATGCTTGG	-0.0266

Sample 3 — method: competition protein-binding microarray; molecule type: double-stranded DNA, one strand shown; matrix: in vitro; tested at: 2 µM; with: Pho4 competitor, 0.05 µM; reading: higher = stronger binding
Target: Centromere-binding protein 1, full length, His-tagged (CBF1, Saccharomyces cerevisiae, UniProt P17106, residues 1-351)
Chain of UniProt P17106 (whole entry, looked up): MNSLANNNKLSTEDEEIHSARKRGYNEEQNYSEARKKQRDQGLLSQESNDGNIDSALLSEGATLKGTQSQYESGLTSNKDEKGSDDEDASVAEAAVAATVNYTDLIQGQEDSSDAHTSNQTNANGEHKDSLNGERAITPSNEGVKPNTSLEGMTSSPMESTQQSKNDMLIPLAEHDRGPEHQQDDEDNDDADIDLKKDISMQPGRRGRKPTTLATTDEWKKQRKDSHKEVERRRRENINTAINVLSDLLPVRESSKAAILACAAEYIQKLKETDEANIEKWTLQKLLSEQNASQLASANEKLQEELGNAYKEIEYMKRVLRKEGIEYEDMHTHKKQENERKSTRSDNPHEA
Notes: whole 60-bp probe, lowest competitor level
Strand	fluorescence intensity [a.u.]
AAATTACTAAGTTGGGTAGTGGGTGACGCCGTATGAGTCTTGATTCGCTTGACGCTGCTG	51.4
TTACAAGTTATGCCTCACGTTACCTGGATCCTGCATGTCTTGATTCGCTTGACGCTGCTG	215
GTCGTCATCCTCCAAGCCGTGATGGTCATCTTCTTCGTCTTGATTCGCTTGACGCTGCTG	54.8
CCGGAACTGACTTTTATCGTGATGGGAACTTTGGGTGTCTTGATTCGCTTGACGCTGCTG	71.9
ATTTTCCTGATCCCAAATGTGACGCCCAACATGGCAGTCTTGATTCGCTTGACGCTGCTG	71.7

Other studies, line by line
Substance	target	assay	test system	setting	scale	measurement	value
PhoQ, residues 284 288 289 292 302 303 NLMGRA	PhoP, residues 12 14 15 18 19 SQCLL (Escherichia coli, UniProt P23836)	Sort-seq, item: YFP reporter	E. coli	PhoQ-PhoP variant library, with: 10 µM Mg2+	baseline: high Mg2+ state, higher = stronger signaling	fold induction	12.8

A few entries again (sample 1):
Strand	fitted relative affinity [z-score]
ATGTATACACACTATAGTGAAGTGCTA	0.297
TTAGGTCTCGGTCCCGGTTAGTGCTAG	-0.0499
